Experimental data pooled from the literature.
Every numbered part comes from another study and shows a few of its results, in no order.

Series 1
Target: RING finger protein unkempt homolog, zinc fingers 1-6, SBP tag (UNK, Homo sapiens, UniProt Q9C0B0, residues 30-357)
Sequence of UniProt Q9C0B0 (30-357, looked up): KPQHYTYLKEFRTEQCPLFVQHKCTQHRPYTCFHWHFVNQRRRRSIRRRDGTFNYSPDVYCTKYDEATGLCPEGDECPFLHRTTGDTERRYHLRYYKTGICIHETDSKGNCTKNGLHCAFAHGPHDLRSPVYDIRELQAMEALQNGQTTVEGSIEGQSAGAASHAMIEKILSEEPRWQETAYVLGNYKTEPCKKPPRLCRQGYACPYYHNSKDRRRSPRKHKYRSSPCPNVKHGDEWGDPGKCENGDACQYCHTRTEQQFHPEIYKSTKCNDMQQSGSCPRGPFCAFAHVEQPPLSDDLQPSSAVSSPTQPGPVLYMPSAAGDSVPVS
Method: RNA Bind-n-Seq
Molecule type: RNA
Sample: in vitro
Concentration: 100 nM
Setting: RNA with constant flanks, vertebrate orthologous sites, ends assumed
Baseline: input RNA pool
Reading: higher = stronger binding
Quantity: bound/input enrichment
All sequences stand within: GGGAGUUCUACAGUCCGACGAUC … CAACAGAGGAUUGAGCAUCA
UGUGUUGGUGCAGAGCGUCUGUACCACUGCUCAUCGUCCCUUCUUCAUACCAACUGUCUCUAGUUGUAGGAAGUUAAUAUUUUUAAAAGUUUUACAUUGCUGUAUAUUCAAAGAUUUGUU: 0.398 ratio
UCAGAUCUAAGCCAACAGCAGUUCUAAAAUGCUAUUUAUUUGUGUCUGUAAGUUUGUACAUAGUAAUAUCAACCUCAUAUUGUUGCAGGUGUUUUUUUUUUUUUUUCCCAUAAGUUUUGA: 2.76 ratio
GCCUCCAACAGGCAAAUUCAGGGAGAGGUAGGUUUCAGGGAAUAUAAAUUUACUUAAUAUUAGUGGUCUUUAAGUAUAAACUUGAUGUAAUUGGUUUGGGAGGGGCAGUGAUGAUGACUU: 1.19 ratio
CUCUAGUUCUUAACAACCAACCCUCCUAAAAGAUUUAGAAAAGAAGUUUACAACAUAAUCUAGUUUACAGAAAAAUCUUGUGCUAGGAUACUUUUUAAAAAGUAUUUUGAAUAUCAUUAA: 1.08 ratio
UUCACUUCCAGGUUGGACCUAGUGGAAAAGUCAUAGGAAUUGACCACAUUAAAGAGCUAGUAGACGACUCAGUAAAUAAUGUCAGAAAGGAUGAUCCAAUGCUUUUGUCUUCAGGGAGAG: 0.764 ratio
AGUUUGUAUGUACAUUAUUCACAUUCCUCUCUGUUGUGUUUAGGGAAAAAAAAAGACAUUUUAGCCUUUUUUAAGGUUAUUGAUUUAAUAUUAUUUGGUUGCAUGAAGUUGCCCUUAACC: 0.562 ratio
UUUUUAUUGAUCAGGUCUGUAAAUGUGUACUAAAAAAUCAGAGUUUAUUUAUAAACAGAAUAUUUUAUUUAAAGAGAAGGUCUUUUCCUCAUUGCUAUCAUGGUAUGCAUUAAUUCCAUU: 0.181 ratio
GGGCCGCUUCGACGUGAAGAUCGAGGUGAAGAGCUGAUCGCAAGCACAGAUCUUUCCCACUAGCCAUUUAAGAAGUUAAAGAUACAAAAACCUACUAGUCUUGAACAAACUGUCAUACGU: 1.54 ratio
UACCUCCUGAGCUUCUAGCUUUCAAGCUGUGGCUAUUUUUUUUUUUCUUUUUCUUUUCUUUAGAAUUUUUCCCCAUUUCCCACCUUCUCUUCCCCUGUUCCCAAGGUCUCACUCAUGGAU: 3.02 ratio
GUUUUGGUUCAAAGCUUUGGGUACCAAUGCUCAUCUUCCUUUCAUUAUACCAACAAACUCUAAGUGUAGGAAUUUACUAUUUUUCAGAAGUUUUACAUUGCUGUAUAUUCAAGGAUUUCU: 0.472 ratio
GGGUCCCUCCCAGGGUGAUGGCCAGGGUUGAGGACCCAAGGUUUCACCAAGGACCUGCAUUUCAAAGUUGUAAAUUCGUUGUACAGGAAGCCAUGUGGCUGAAACAGCCUCUCAAGGUCA: 0.249 ratio

Series 2
Target: Ras GTPase-activating protein-binding protein 1, C-terminal RGG region (G3BP1, Homo sapiens, UniProt Q13283)
Sequence of UniProt Q13283 (whole entry, looked up): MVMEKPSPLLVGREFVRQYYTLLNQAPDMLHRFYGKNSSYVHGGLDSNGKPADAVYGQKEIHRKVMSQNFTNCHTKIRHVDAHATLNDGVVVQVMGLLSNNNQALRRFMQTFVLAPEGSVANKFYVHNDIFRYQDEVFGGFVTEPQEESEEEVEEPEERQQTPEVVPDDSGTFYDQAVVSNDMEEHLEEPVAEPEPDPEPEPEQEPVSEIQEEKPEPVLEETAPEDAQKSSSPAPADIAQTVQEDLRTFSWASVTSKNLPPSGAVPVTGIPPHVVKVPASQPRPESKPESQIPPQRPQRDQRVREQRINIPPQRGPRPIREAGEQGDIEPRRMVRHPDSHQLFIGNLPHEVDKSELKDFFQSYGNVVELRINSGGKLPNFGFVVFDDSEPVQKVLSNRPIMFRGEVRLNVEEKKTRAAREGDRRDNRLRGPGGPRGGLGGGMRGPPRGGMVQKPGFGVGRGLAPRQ
Method: RNA Bind-n-Seq
Molecule type: RNA
Sample: in vitro
Concentration: 1 µM
Setting: whole 134-nt RNA, ends assumed
With: 150 mM KCl
Baseline: input library
Reading: higher = stronger binding
Quantity: log2 enrichment
All sequences stand within: GGGAGUUCUACAGUCCGACGAUC … UGGAAUUCUCGGGUGUCAAGG
CCUGUGCUACACAUCGUAUGUACCGAAUCGGGGAAAAAAAGGGGUUUGGGGUUUUUGGGGAAAGUAUUAUGUUACGCCGUUCGGAUCUGC: 1.51
AAGUCCUGUGCUACACAUCGUAUGUACCGAAUCGGAAAAGGGAAAAGGGAAAAGGGAAAGUAUUAUGUUACGCCGUUCGGAUCUGCACUU: -1.41
AAGUCCUGUGCUACACAUCGUAUGUACCGAAUCGGGUUUUUGGGAAAAAGGGAGGGAAAGUAUUAUGUUACGCCGUUCGGAUCUGCACUU: 1.14
UUGUGUUCGUGAAUUGUAACUCCAGAAGCAAUGCCUGUACAAGCUCCACAAUGGACGGAUUUCCUCUCCUGCCCAAUUUGCACUCAGACU: 0.655
GAGUCCGGUUCGUGUUCGUCCGCGGAGAUCUCUCUCAUCUCGCUCGGCUGCGGGAAAUCGGGCUGAAGCGACUGAGUCCGCGAUGGAGGU: -1.38
UGGCCCUGGUGGUAUGCGGGGAGGAAGAGGUGGCCUCAUGGAUCGUGGUGGUCCCGGUGGAAUGUUCAGAGGUGGCCGUGGUGGAGACAG: 2.45
UCCUCAAGUCCUGUGCUACACAUCGUAUGUACCGAAUCGGCCGGCCGGCCGGAAAGUAUUAUGUUACGCCGUUCGGAUCUGCACUUCCAG: 0.013
GCAGGAAGUAAAAACAAAUGGAAAUGCUUCGGAUAGUGGCAUGGGUGGGGGUUGCUAAGGAAAGGGUGGGAUGGGAGUGGGUAAAGAGUU: 0.96
AGUCCUGUGCUACACAUCGUAUGUACCGAAUCGGGGAGGGGAAAAAGGGGAAAGGGGAAAGUAUUAUGUUACGCCGUUCGGAUCUGCACU: 2.42
UCAAGUCCUGUGCUACACAUCGUAUGUACCGAAUCGGGUUGGGUUGGGGUUGGGAAAGUAUUAUGUUACGCCGUUCGGAUCUGCACUUCC: 2.38
GUCCUGUGCUACACAUCGUAUGUACCGAAUCGGGGAAAAAAAGGGGUGGGGUUUGGGGAAAGUAUUAUGUUACGCCGUUCGGAUCUGCAC: 1.66
CUCAAGUCCUGUGCUACACAUCGUAUGUACCGAAUCGGGAGGGAGGGAAAGGGAAAGUAUUAUGUUACGCCGUUCGGAUCUGCACUUCCA: 2.05
CAAGUCCUGUGCUACACAUCGUAUGUACCGAAUCGGGGUUUGGUUUGGGGUUUGGGAAAGUAUUAUGUUACGCCGUUCGGAUCUGCACUU: -0.119
CUGUGCUACACAUCGUAUGUACCGAAUCGGGGUUUUUUUGGGGUUUUUUUGGGUUUUUUUGGAAAGUAUUAUGUUACGCCGUUCGGAUCU: -0.979

Series 3
Target: RNA binding protein fox-1 homolog 2, RRM domain, GST-SBP tag (RBFOX2, Homo sapiens, UniProt O43251-10, residues 100-194)
Method: RNA Bind-n-Seq
Molecule type: RNA
Sample: in vitro
Concentration: 365 nM
Setting: natural RNA segment, single round, ends assumed
Baseline: no-protein control
Reading: higher = stronger binding
Quantity: RBNS enrichment (R)
All sequences stand within: GGGAGUUCUACAGUCCGACGAUC … UGGAAUUCUCGGGUGCCAA
Residues (chain): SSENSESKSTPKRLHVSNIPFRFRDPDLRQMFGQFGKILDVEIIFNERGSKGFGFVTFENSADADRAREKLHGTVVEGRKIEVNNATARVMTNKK
CCUGGGGCGACAGGAGAACCGGUCCUCUCUCUGACGGGGUGGCAUUUGGCCUUGAACAAAACCAAGUCCACUGGGGACAGAGGCAGGGGCAAGUGGCUCUCCCCAUUACC: 0.332
CAAAGCAUAGCAUUUUAGCAUCAACUACAAUCAAAAGAGCGAUUUGCUGAAGGAAAAAUCGGACUGCAAAUCAUUCCAAGGCCAAACUGCAACUGAGCCACCCACUCCCA: 0.657
AAAGGCUUUCUUUAUCCUAAAGAUUAUUACCUUUUUAAAGUGCUCUUAUAUUUUCAUGAGUUUUUAUUUUGUCUCUGAGAUUUUGUAUUCCACAUUCUAGGGUAUUCUGU: 0.514
GUACCUGGUUCAGAGCAGUCCGGGAUGAUAGGACGAGAUCCUAAAGUUCUUUCAGGGAGCUCUGCCAUGAGAGCAAACAGAGCAUAUCUAUCAUAUGCCACUUUGACGAA: 0.269
ACGAAAGAAAUAUCAGGGACUUUUGUUGACUAUUUACAACUCAGUUUUACAUUUAAAUUCAGGCAGUGUUAAUAUGCCAAGGUAGGGAAUGUGCCUUUUUCAGAGUUGGC: 0.363
CUUUCUUCUUGCCCAGCUCUGUCGAAUUCAUGGGUGUGUGUGCACAUGUUGGUUUCACUCACCCAGAGUAAUUUUGUGAGCAUGCAUGUGCUUUUUAAUUUCUGCUUGAA: 7.42
ACUUGCCUCUUGUAUGCAAGGACUACUGAUUGAAGUCUGUUUUGCUGUGUCUGGUUAUGUUGUCUGCACUUUUAUGAAAUCACUACAAUAGGUCUGCAUUGGAAAUGACU: 1.51
CCCAGGCAGGUCAUCUUUUCUGGGAGAUGCUUCCCCUGCCAUCCCCAAAUAGCUAGGAUCACACUCCAAGUAUGGGCAGUGAUGGCGCUCUGGGGGCCACAGUGGGCUAU: 0.375
CAGCUCUGGCUUUGCAUCCUUACUCUCAUGCCCAGUUGCUUAGAGAGAACGGGAGAACAGGUCUAAGGAAUUGUACCUUGAUGUGCUCUGCAAAGGAGAUAACGAAUGGG: 0.238
CAGAAGGGUACUUUCUGUGUCAUACCAUGCCACUUCUUUAAGCUCUUCAGGGCAGCCAAAGCCAGCCCUUUUCUCCUACUGCCCCCAGGAGAAAUAGCACUCUUCUCCCU: 0.311
UCUCUGUGGUCCCUUCCAAUGCUGUGGGUUUCCAACCAGGGGAAGGGUCCCUUUUGCAUUGCCAAGUGCCAUAACCAUGAGCACUACUCUACCAUGGUUCUGCCUCCUGG: 0.477
UAGGCAGAUAUAUAUGCUAUCUUACAGCUAAUUAUGAAAUUGAAUGAAAAUCCAUUGUUAUCUUAGGGAUUAGUUUUGAAAAGCCCCCGUUUAUAUACAUUUGCCCUAAC: 1.89

Series 4
Target: Histone acetyltransferase KAT6A, winged helix 1, GST fusion (KAT6A, Homo sapiens, UniProt Q92794, residues 1-85)
Method: protein binding microarray
Molecule type: double-stranded DNA, one strand shown
Sample: in vitro
Concentration: not given
Setting: 8-mer, flanks averaged, mean of 2 arrays, mostly near background
Baseline: not given
Reading: higher = stronger binding
Quantity: E-score
Target sequence (chain): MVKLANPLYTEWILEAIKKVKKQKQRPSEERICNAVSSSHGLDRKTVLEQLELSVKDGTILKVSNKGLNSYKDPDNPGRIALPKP
CTTTCGTA: -0.0868
ACAAGTAT: -0.12
CACCGATC: 0.0806
ACCAAATC: -0.208
AAGCCGCT: 0.332
TCCGTCAA: 0.117
AAAAAGCC: 0.107
AAGGAGTC: -0.258
CGGACGGA: 0.278
AGGCCCCC: 0.0795
CATCAACG: -0.128
CGCCAAGC: 0.279
ACACGTTA: -0.223
ACTCACAC: -0.112
GACTTTCA: -0.0345
AAATGCCG: 0.341
ACCTAAAC: -0.0288
ACTATTGC: -0.0208

Series 5
Target: Sal-like protein 4, full length isoform A (SALL4, Homo sapiens, UniProt Q9UJQ4, residues 1-1053)
Sequence of UniProt Q9UJQ4 (whole entry, looked up): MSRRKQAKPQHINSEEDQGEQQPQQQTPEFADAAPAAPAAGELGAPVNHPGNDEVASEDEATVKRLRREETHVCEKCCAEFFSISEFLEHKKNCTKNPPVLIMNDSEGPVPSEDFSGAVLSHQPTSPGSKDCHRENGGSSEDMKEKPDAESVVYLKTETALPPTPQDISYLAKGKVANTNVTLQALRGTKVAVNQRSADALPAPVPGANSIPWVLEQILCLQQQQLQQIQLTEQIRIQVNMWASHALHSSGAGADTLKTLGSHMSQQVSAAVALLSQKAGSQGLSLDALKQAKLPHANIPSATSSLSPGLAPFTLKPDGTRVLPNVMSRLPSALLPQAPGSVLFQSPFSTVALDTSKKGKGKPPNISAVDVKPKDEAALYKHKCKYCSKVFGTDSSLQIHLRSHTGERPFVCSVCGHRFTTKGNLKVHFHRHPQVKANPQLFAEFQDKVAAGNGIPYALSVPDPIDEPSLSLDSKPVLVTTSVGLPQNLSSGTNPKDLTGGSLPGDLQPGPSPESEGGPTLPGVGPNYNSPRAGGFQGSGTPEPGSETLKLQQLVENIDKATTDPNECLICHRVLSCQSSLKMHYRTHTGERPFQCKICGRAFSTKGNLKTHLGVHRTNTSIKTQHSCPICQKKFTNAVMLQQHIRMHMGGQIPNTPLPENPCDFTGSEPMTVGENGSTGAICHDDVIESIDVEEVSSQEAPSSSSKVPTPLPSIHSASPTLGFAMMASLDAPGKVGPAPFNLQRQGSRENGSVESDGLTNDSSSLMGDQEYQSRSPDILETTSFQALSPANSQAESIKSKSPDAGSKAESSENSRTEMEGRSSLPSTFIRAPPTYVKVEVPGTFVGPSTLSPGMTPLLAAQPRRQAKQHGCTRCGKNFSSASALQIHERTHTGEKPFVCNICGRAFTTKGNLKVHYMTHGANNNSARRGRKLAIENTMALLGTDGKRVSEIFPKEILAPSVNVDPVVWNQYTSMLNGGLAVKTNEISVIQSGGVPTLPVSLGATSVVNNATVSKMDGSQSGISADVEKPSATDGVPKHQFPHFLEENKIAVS
Method: universal PBM
Molecule type: double-stranded DNA, one strand shown
Sample: in vitro
Concentration: 600 nM
Setting: 8-mer, flanks averaged, mean of replicates
Reading: higher = stronger binding
Quantity: E-score
ACTCAGGA: -0.0929
GTAGACAC: -0.0111
ACCAAGTG: -0.0704
AATTGTAC: 0.219
CCGCTCTC: -0.292
GCACAGGC: -0.169
CTGAGGCA: -0.15
CCTCGTCG: -0.125
ATCACAAA: 0.191
CAGATAGA: 0.0664
GCACTGAA: 0.0135
GGTTTCCA: -0.0527
ACGTCGGA: -0.131
AGCGGACA: -0.205
ATCATTCG: 0.224
TGGACTAA: 0.0399
CCCGCAAC: -0.133
AGGCGCCA: -0.188
GAAGTCAA: 0.055
CCCATCGC: -0.238
ACGGGTAT: 0.0664
CTACGCAC: -0.105
AATCCGAC: 0.0367
GCGTGAGA: -0.0487
GCCCGCGC: -0.381

Repeated from above (series 5):
GGTTTCCA: -0.0527
GAAGTCAA: 0.055
CAGATAGA: 0.0664
CTACGCAC: -0.105
GCCCGCGC: -0.381
GCGTGAGA: -0.0487
ATCATTCG: 0.224
ACGGGTAT: 0.0664
